Measurements from different studies.
Each numbered part is a random draw from the data of one study; scales do not carry over between parts. Changes are numbered by the printed parent chain.

Study 1
Target: PABPC1L2, full length, GST fusion (mouse, UniProt A0ABA7IW68)
Method: RNAcompete
Form: RNA
Sample: in vitro
Tested at: 20 nM
Notes: 7-mer, probes averaged, single round
Baseline: mean of 7-mers
Reading: higher = stronger binding
Target sequence (chain): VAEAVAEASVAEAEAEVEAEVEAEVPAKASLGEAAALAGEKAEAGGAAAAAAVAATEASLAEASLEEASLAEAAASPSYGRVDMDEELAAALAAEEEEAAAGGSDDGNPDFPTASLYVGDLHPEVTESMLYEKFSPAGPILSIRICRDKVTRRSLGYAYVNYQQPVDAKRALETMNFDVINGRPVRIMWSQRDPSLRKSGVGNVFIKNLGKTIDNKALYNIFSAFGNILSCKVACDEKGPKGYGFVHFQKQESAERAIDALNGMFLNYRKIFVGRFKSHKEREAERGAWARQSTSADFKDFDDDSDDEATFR
`CUCUAAG` gave a 7-mer Z-score of -0.28.
`CGCGUGC` has a 7-mer Z-score of -0.382.
`GUGGAAC` has a 7-mer Z-score of 0.0895.
`CCUGAUC` has a 7-mer Z-score of -0.382.
`CAGUGUU` has a 7-mer Z-score of -0.273.
The 7-mer Z-score of `GGCCGAA` is reported as 0.0696.
`GUUUUCU` gave a 7-mer Z-score of -0.36.
`CUACCAA` gave a 7-mer Z-score of -0.0573.

Study 2
Target: TAR DNA-binding protein 43, full length, His tag (TARDBP, Homo sapiens, UniProt Q13148, residues 1-414)
Method: RNA Bind-n-Seq
Form: RNA
Sample: in vitro
Tested at: 20 nM
Notes: 6-mer, flanks averaged, single round
Together with: 150 mM KCl
Baseline: input library
Reading: higher = stronger binding
For `UCGUUA`, “6-mer enrichment (R)” read 0.553.
`CUUAUU` — result for “6-mer enrichment (R)”: 0.611.
`UCAGGA` — result for “6-mer enrichment (R)”: 0.852.
`UCGGGG`: “6-mer enrichment (R)” 3.42.
For `CAGGAG`, “6-mer enrichment (R)” read 1.7.
For `CCUACU`, “6-mer enrichment (R)” read 0.592.
Under “6-mer enrichment (R)”, `AAGGAA` is recorded as 0.812.
For `UAGUUU`, “6-mer enrichment (R)” read 0.641.

Study 3
Target: Ras GTPase-activating protein-binding protein 1, C-terminal RGG region (G3BP1, Homo sapiens, UniProt Q13283)
Sequence of UniProt Q13283 (whole entry, looked up): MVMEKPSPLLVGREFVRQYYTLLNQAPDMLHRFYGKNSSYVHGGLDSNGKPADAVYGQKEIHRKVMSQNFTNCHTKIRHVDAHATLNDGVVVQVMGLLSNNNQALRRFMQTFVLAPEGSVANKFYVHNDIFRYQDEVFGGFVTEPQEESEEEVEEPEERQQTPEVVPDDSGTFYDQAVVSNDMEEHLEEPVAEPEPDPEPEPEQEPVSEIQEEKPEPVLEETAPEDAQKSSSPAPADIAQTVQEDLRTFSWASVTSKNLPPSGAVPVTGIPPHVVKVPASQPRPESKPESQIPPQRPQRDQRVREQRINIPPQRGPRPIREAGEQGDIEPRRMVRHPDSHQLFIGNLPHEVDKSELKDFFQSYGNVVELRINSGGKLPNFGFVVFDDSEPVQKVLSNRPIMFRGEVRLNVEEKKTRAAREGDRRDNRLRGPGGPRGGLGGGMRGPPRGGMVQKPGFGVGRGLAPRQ
Method: RNA Bind-n-Seq
Form: RNA
Sample: in vitro
Tested at: 1 µM
Notes: whole 134-nt RNA, ends assumed
Together with: 150 mM KCl
Baseline: input library
Reading: higher = stronger binding
Constant ends, left off below: GGGAGUUCUACAGUCCGACGAUC … UGGAAUUCUCGGGUGUCAAGG
With `CUGUGCUACACAUCGUAUGUACCGAAUCGGGCCCCCCCGGCCCCCCCGGGGCCCCCCCGGGAAAGUAUUAUGUUACGCCGUUCGGAUCUG` the log2 enrichment was -1.66.
For `AAGUCCUGUGCUACACAUCGUAUGUACCGAAUCGGGUUUUGGGGUUUUGGUUUUGGGAAAGUAUUAUGUUACGCCGUUCGGAUCUGCACU`, the log2 enrichment was -1.03.
`ACCAUGCAGGUGGGCAUCUUUGGGAAGUGGGGCAAGGGGGGGAUAGGGAGGGGGGUAAAACUUUGGGAACAGGUGGUCCCAGGUCGUUUC` gave a log2 enrichment of -1.37.
The log2 enrichment of `AAGUCCUGUGCUACACAUCGUAUGUACCGAAUCGGGGCCCCGGGCCCCGGCCCCGGAAAGUAUUAUGUUACGCCGUUCGGAUCUGCACUU` is reported as -1.97.
With `UGGCCCUGUUGGCAUGCGGGGAGGAAGAGGUGGCCUCAUGGAUCGUGGUGGUCCCGGUGGAAUGUUCAGAGGUGGCCGUGGUGGAGACAG` the log2 enrichment was 2.07.
`UGGACCUGGUGGCAUGCGGGGAGGAAGAGGUGGCCUCAUGGAUCGUGGUGGUCCCGGUGGAAUGUUCAGAGGUGGCCGUGGUGGAGACAG` has a log2 enrichment of 1.95.
The log2 enrichment of `ACCAUGCAGGUGGGCAUCUUUGGGAAGUGGGGCAAGGGGGGGAUAGGGAGGGGGGUAACACUUUGGGAACAGGUGGUCCCAGGUCGUUUU` is reported as 2.46.
For `CAAGUCCUGUGCUACACAUCGUAUGUACCGAAUCGGUUUGGGGUUUGGGUUUGGGGAAAGUAUUAUGUUACGCCGUUCGGAUCUGCACUU`, the log2 enrichment was -0.732.

Single results of other studies
Starting sequence: viral docking peptide; TSVRRALFTGGSD; partner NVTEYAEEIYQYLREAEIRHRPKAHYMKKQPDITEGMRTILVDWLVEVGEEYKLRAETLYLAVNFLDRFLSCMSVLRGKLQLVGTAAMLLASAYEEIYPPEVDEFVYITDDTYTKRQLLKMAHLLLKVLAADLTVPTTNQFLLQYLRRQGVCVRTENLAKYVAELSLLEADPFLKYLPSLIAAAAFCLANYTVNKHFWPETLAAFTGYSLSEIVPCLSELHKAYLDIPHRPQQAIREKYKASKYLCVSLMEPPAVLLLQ
`TSIRRALFTGGSD [V3I]`: “normalised enrichment score” 0.982 (CCNA1, cyclin fold, Cln2 fusion (human); yeast growth competition, sequencing; yeast; strong parent motif; baseline: not given, higher = stronger binding).

Some of these lines once more (study 2):
For `CAGGAG`, “6-mer enrichment (R)” read 1.7.
For `CCUACU`, “6-mer enrichment (R)” read 0.592.
